Measured values of several laboratories.
Numbers after ± are the reported error.

Compound	organism	assay	system	setting	how to read	endpoint	value
COC(=O)Cn1c2ccc([N+](=O)[O-])cc2c(=O)n1Cc1ccccc1	Leishmania amazonensis	–	promastigotes, MHOM/BR/77/LTB0016	–	relative to: CC50 macrophages over IC50 promastigotes	selectivity index	285
CC[C@H](C)[C@H](NC(=O)[C@@H](CCCNC(=N)N)NC(=O)[C@H](CCCNC(=N)N)NC(=O)[C@H](Cc1ccccc1)NC(=O)[C@H](Cc1c[nH]c2ccccc12)NC(=O)[C@H](CCCNC(=N)N)NC(=O)[C@@H]1CCCN1C(=O)[C@H](CCCNC(=N)N)NC(=O)[C@@H]1CCCN1C(=O)[C@H](CC(C)C)NC(=O)[C@H](Cc1ccc(O)cc1)NC(=O)[C@@H]1CCCN1C(=O)[C@@H]1CCCN1C(=O)[C@H](CCCCN)NC(=O)[C@H](CC(=O)O)NC(=O)[C@@H](N)C(C)C)C(=O)N[C@@H](Cc1ccc(O)cc1)C(=O)N[C@@H](CC(N)=O)C(=O)N[C@H](CCCNC(=N)N)C(N)=O	Acinetobacter baumannii	LC-MS	–	8 µg/mL, 30 min	–	cellular peptide amount	475 ng
CC[C@H](C)[C@H](NC(=O)[C@H](CCCNC(=N)N)NC(=O)[C@@H](NC(=O)[C@H](C)NC(=O)[C@@H](NC(=O)[C@@H](NC(=O)[C@H](CC(C)C)NC(=O)[C@H](CCCNC(=N)N)NC(=O)[C@@H](N)C(C)C)[C@@H](C)CC)C(C)C)C(C)C)C(=O)N[C@@H](Cc1c[nH]c2ccccc12)C(=O)N[C@@H](CCCNC(=N)N)C(=O)N[C@@H](CCCNC(=N)N)C(N)=O	Galleria mellonella	–	–	concentration not given, 48 h, uninfected larvae, toxicity	–	survival	90 ± 14%
C[C@@H](O)[C@H](NC(=O)[C@H](Cc1ccc(O)cc1)NC(=O)[C@@H]1CCCN1C(=O)OCC1c2ccccc2-c2ccccc21)C(=O)N[C@@H](CCCNC(=N)N)C(=O)N[C@@H](CO)C(=O)NCC(=O)N1CCC[C@H]1C(=O)NCC(=O)N[C@@H](Cc1c[nH]c2ccccc12)C(=O)N[C@@H](CO)C(=O)N[C@@H](CO)C(=O)N[C@@H](Cc1c[nH]cn1)C(=O)O	Escherichia coli	bacterial growth, OD600	BL21, LB medium	6 h	–	CC50	> 200 µg/mL
CC1(C)C(C=C(Cl)Cl)C1C(=O)OCc1ccc(F)cc1 (centres unmarked)	Anopheles funestus	tile contact bioassay	FUMOZ-R, resistant, female adults	30 min exposure, 24 h mortality	–	LC50	1.41 mg/m²
CCCCNCC(O)Cn1c2ccc(Cl)cc2c2cc(Cl)ccc21 (centres unmarked)	Schistosoma japonicum	–	–	10 µg/mL, juvenile schistosomula	–	mortality	100%
CC(=O)Oc1ccc(Cn2cc(F)c(=O)[nH]c2=O)cc1C1OC(c2ccc(Cl)cc2)=NN1C(C)=O (centres unmarked)	Leishmania donovani	–	RAW264.7	intramacrophage amastigotes	relative to: CC50 over IC50	selectivity index	< 1
COc1ccc(CNc2nc(N3CCC[C@H]3CO)ncc2C(=O)NNC(=O)c2cnc(N3CCC[C@H]3CO)nc2NCc2ccc(OC)c(Cl)c2)cc1Cl	Salmonella typhimurium	–	TA1535	1000 µg/plate, 48 h, with: rat liver S9	–	revertant count	33 ± 2
NCCn1c2ccc([N+](=O)[O-])cc2c(=O)n1Cc1ccccc1	Leishmania amazonensis	–	promastigotes, MHOM/BR/77/LTB0016	–	relative to: CC50 macrophages over IC50 promastigotes	selectivity index	155
CC1(C)C(C=C(Cl)Cl)C1C(=O)OCc1ccccc1 (centres unmarked)	Anopheles funestus	tile contact bioassay	FANG, susceptible, female adults	30 min exposure, 24 h mortality	–	LC50	1.19 mg/m²
COc1ccc(CNc2nc(N3CCC[C@H]3CO)ncc2C(=O)NN)cc1Cl	Salmonella typhimurium	–	TA100	125 µg/plate, 48 h, with: rat liver S9	–	revertant count	158 ± 30
CC(=NNC(=N)N)c1nnn(-c2ccc(C#CC3(O)CCCCC3)cc2)c1C	Enterococcus faecalis	–	Caco-2, ATCC 51299	–	relative to: Caco-2 IC50 over MIC	selectivity index	2.75
NCC(=O)N[C@@H](Cc1ccccc1)C(=O)N[C@@H](Cc1ccccc1)C(=O)N[C@@H](CC(=O)O)C(=O)O	Aplysia californica	–	ganglion homogenate	50 µM, pH 7.4, 37 °C	–	half-life	8.4 min
CCC(=O)N(C)c1ccc(Cl)c(Cl)c1	Escherichia coli	Ames test	WP2 uvrA	0.10 mg/plate, with rat liver S9	–	revertants	30 ± 10.6 revertants/plate
O=c1c2cc([N+](=O)[O-])ccc2n(CCN2CCCC2)n1Cc1ccccc1	Leishmania amazonensis	–	promastigotes, MHOM/BR/77/LTB0016	–	relative to: CC50 macrophages over IC50 promastigotes	selectivity index	195
C/C=C/c1ccc(OC(C)=O)c(OC)c1	Artemia salina	toxicity	nauplii, artificial sea water	–	–	LC50	30.5 mM
CC1(C)C(C=C(Cl)Cl)C1C(=O)OCc1c(F)ccc(F)c1F (centres unmarked)	Anopheles funestus	tile contact bioassay	FANG, susceptible, female adults	30 min exposure, 24 h mortality	–	LC50	0.0494 mg/m²
CC(=O)OCCn1c2ccc([N+](=O)[O-])cc2c(=O)n1Cc1ccccc1	Leishmania amazonensis	–	promastigotes, MHOM/BR/77/LTB0016	–	relative to: CC50 macrophages over IC50 promastigotes	selectivity index	191
CC1(C)C(C=C(Cl)Cl)C1C(=O)OCc1c(F)c(F)c(F)c(F)c1F (centres unmarked)	Anopheles funestus	tile contact bioassay	FUMOZ-R, resistant, female adults	30 min exposure, 24 h mortality	–	LC50	0.0446 mg/m²
NCCCn1c2ccc([N+](=O)[O-])cc2c(=O)n1Cc1ccccc1	Leishmania amazonensis	–	mouse peritoneal macrophages	intracellular amastigotes	relative to: CC50 macrophages over IC50 amastigotes	selectivity index	15

Some of these lines once more:
Compound	organism	assay	system	setting	how to read	endpoint	value
CC(=O)Oc1ccc(Cn2cc(F)c(=O)[nH]c2=O)cc1C1OC(c2ccc(Cl)cc2)=NN1C(C)=O (centres unmarked)	Leishmania donovani	–	RAW264.7	intramacrophage amastigotes	relative to: CC50 over IC50	selectivity index	< 1
COc1ccc(CNc2nc(N3CCC[C@H]3CO)ncc2C(=O)NNC(=O)c2cnc(N3CCC[C@H]3CO)nc2NCc2ccc(OC)c(Cl)c2)cc1Cl	Salmonella typhimurium	–	TA1535	1000 µg/plate, 48 h, with: rat liver S9	–	revertant count	33 ± 2
